# Results gathered from unrelated publications.
# Numbered parts are unrelated; each lists some results of a single study. Positions count from the first letter of the parent shown.

# Study 1
# Target: ABI1, truncated, D143A, DHFR fusion (Arabidopsis thaliana)
# Method: DHFR PCA, deep sequencing
# Medium: yeast
# Notes: methotrexate growth selection, single substitutions
# Added: (+)-ABA 1.4 µM
# Reference: wild-type fitted maximum
# Reading: higher = stronger binding
# Starting sequence: PYL1, truncated, DHFR fusion (Arabidopsis thaliana); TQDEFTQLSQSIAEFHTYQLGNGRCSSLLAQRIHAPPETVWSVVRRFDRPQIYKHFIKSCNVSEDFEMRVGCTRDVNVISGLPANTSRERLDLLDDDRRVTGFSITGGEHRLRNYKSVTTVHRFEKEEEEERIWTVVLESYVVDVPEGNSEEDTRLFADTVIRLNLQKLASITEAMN; partner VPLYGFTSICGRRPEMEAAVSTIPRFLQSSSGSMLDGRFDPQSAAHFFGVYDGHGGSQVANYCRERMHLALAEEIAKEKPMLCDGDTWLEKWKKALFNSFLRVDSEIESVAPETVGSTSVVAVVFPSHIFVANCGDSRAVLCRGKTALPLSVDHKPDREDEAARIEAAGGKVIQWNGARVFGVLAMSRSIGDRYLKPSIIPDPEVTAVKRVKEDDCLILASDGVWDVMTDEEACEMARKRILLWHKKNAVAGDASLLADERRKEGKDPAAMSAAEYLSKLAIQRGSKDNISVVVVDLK
Substitution,relative binding score
R49H,31.6%
V137K,-5.57%
V121D,-0.115%
T1Y,44.9%
G148N,0.156%
F47D,-9.74%
M176H,32.2%
C25V,63.9%
T39G,3.66%
S26F,-19.1%
S42I,-0.94%
Q167D,21.3%
P146V,11.6%
V70T,18.6%
I57V,48.6%
E64I,25.7%

# Study 2
# Target: CCNE2, cyclin fold, Cln2 fusion (human)
# Method: yeast growth competition, sequencing
# Medium: yeast
# Notes: weak parent motif
# Reference: not given
# Reading: higher = stronger binding
# Starting sequence: ORC1 docking peptide (human); PRARKRLELGNLG; partner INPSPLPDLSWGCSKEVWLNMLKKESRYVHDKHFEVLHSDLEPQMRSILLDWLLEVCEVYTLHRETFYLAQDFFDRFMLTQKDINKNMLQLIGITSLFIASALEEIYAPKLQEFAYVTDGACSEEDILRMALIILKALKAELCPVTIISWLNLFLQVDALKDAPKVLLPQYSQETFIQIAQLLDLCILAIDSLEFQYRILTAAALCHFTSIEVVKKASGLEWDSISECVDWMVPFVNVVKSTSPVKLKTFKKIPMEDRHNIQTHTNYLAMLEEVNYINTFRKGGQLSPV
Substitution,normalised enrichment score
R2W,1.15
A3S,0.775
P1Q,1.04
P1K,1.54
L7P,-0.526
N11V,0.996
G13S,0.356
K5D,0.201
P1Y,0.194
G10D,1.12
L12H,1.04
G10E,0.524
P1W,0.435
R2C,-0.00162
L12S,0.73
K5R,1.12
L12A,0.951
R6L,1.28
A3I,-0.798
E8V,0.571
P1D,1.62
L9C,0.833
A3H,0.7

# Study 3
# Target: RING finger protein unkempt homolog, zinc fingers 1-6, GST-SBP tag (UNK, Homo sapiens, UniProt Q9C0B0, residues 30-357)
# Sequence of UniProt Q9C0B0 (30-357, looked up): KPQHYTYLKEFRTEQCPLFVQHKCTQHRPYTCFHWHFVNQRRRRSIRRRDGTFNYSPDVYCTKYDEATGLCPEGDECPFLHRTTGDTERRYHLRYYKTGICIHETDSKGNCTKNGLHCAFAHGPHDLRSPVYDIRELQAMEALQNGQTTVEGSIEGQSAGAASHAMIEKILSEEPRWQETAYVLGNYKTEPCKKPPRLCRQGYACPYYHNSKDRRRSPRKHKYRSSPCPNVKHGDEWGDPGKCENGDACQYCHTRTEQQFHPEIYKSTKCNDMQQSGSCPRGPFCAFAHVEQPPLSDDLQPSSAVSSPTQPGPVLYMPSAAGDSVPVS
# Method: RNA Bind-n-Seq
# Form: RNA
# Medium: in vitro
# Tested at: not given
# Notes: RNA with constant flanks, human and mouse sites, ends assumed
# Reference: input RNA pool
# Reading: higher = stronger binding
# Constant ends, left off below: GGGAGUUCUACAGUCCGACGAUC … CAACAGAGGAUUGAGCAUCA
Sequence,bound/input enrichment
CACCAUUCUUUGUUUCCUAGGGAGUGACUGUCAAGUACUAAUUCCUCAAGAUGGUAUUUGUUAGUCCAAAAUGUUAAGCUUUUUAAAAAAAAAAUGUUACUUGAUUUCUUUUGAUUUGUA,1.18 ratio
CCUUAUGUCUAUGUUGAAAUCCAUGGAAUCCCUGCUGAUUGUGCAGAACAAAGGACAAAAACAGUGCACCAGAAUGGAGACGCUCCCAUUUUUGAUGAAAGCUUUGAAUUUCAAAUCAAC,0.132 ratio
AAAGAUGAGUCUGAAGUUAUAUCGCAAAAUGAAACGUGCUCUCCAGCAGAAGUAGAAAGUAAUGAAAAGGACAACAAACCUGAGGAAGAAGAGCAAGUAAUACAUGAAGAUGAUGAAAGA,0.354 ratio
AGUUCACCGUGUAUCCACUACUUCACCGGGACCCCAGAUCCUUCCAGGUCCAUAUUCAAGCCUUUCAUCUUUGUUGAUGAUGUAAAACUUGUCCCCAAAGCACAGUCACCCUGUUUUGGU,0.131 ratio
GAGACACUUGAAGAAAAUUGCCCCAAAGCCCUGACUUUAAGGAUUCAUGAUUCUUUGAAUAAUACUCUGUCAGUUGGCCUCAUUCCAACCAAUUCAACAAAUACUAUCAUGGACCAAAAA,0.255 ratio
AAUGAAAUUUAUGUUGCUGGUAUUUUGCAUUUUAAAGUGAUCAAGAUUCAUUAGGCAAACUUUGGUUUAAGUAAACAUAUGUUCAAAAUCAGAUUAACAGAUACAGGUUUCAUAGAGAAC,0.258 ratio
CUGGACCUCAACUGUGACGGGCAGCUAGAUUUCCAAGAGUUUCUCAACCUCAUUGGUGGCUUAGCUAUAGCGUGCCAUGAUUCUUUCAUCCAAACUUCCCAGAAGCGAAUCUAAUCCUCU,0.292 ratio
GUGAAGACAUCACUUCCCCUCGGAGUCCCCUGAGUAUUUACAAGCCUCAGCAGGGCAGCAUAGCUAUGUUCUGUUUGCCGUUUGUUGGUUUGCUUCUGUAUAGGUCUCUUUCCUUCCUCC,0.332 ratio
GAUUCCAAGCUAACAAGACUACUACAGGAUUCCCUCGGGGGUAAUAGCCAAACAAUCAUGAUAGCAUGUGUCAGCCCUUCAGACAGAGACUUUAUGGAAACGUUAAACACCCUGAAAUAC,0.287 ratio
CUGCCUGCCCCUCGGAGACCAAAGGUUAACAGCAUCUUGAAUCUCUUUGGAUCAUGGUUAUUUGAUGCAGCAUUUGUUCACUGUAAACUUCAUAAUGGGAUAAACAGAGACAGCAGCAUG,0.453 ratio
AGUGGAGAUGCUUACACAUUGUCAAACAUAUGUAUAUAUUCUUUUAUCACACACAAAUGGCAGCAUAUUGGACACUUUUUGUUUUUUGCUCCUUCUGUUCCUUCACUUAAUAAUAUCACG,0.55 ratio

# Study 4
# Target: BATF3, bZIP domain (human)
# Method: DHFR protein complementation
# Medium: yeast
# Notes: single substitutions, most at no-binding floor
# Reference: wild-type JUN-FOS pair
# Reading: higher = stronger binding
# Starting sequence: JUN, bZIP domain (human); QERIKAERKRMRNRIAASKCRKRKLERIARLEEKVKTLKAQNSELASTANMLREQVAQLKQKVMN; partner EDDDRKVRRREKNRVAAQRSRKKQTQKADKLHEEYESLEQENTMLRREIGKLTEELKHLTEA
Substitution,binding fitness
K39P,-0.641 natural log
K39I,0.105 natural log
V56K,-0.0785 natural log
A29H,0.169 natural log
S47Q,0.224 natural log
T37D,0.194 natural log
L52G,-1.19 natural log
R53L,0.014 natural log
L52D,-1.04 natural log
L31D,0.116 natural log
A57P,-0.829 natural log
Q41N,0.107 natural log
A49S,0.0631 natural log
A46Q,0.144 natural log
L45H,-0.118 natural log
V35Y,0.0485 natural log
N42C,-0.0985 natural log
A57K,0.274 natural log
N42I,-0.585 natural log
S47M,0.177 natural log
T37W,0.188 natural log
L38A,0.288 natural log
N42P,-0.842 natural log
N42T,-0.115 natural log
K36R,0.238 natural log

# For quick reference, copied from above (study 4):
Substitution,binding fitness
T37D,0.194 natural log
A46Q,0.144 natural log
A29H,0.169 natural log
L52G,-1.19 natural log
N42C,-0.0985 natural log
R53L,0.014 natural log
L45H,-0.118 natural log
Q41N,0.107 natural log
A57P,-0.829 natural log
L52D,-1.04 natural log
L31D,0.116 natural log
N42I,-0.585 natural log
